Results of several laboratories.
Each line is one published result; not all experiments were run side by side. ± gives the spread as reported.

For `COC[C@H](NC(=O)[C@H](CCc1ccccc1)NC(=O)c1cnc(C)s1)C(=O)N[C@H](/C=C/S(C)(=O)=O)Cc1cccs1`, the EC50 was > 250 µM (HFF, non-confluent; cell viability, CellTiter-Blue; 1 h).
`O=C1NCCN1C[C@H](O)Cn1c2ccc(F)cc2c2cc(F)ccc21` gave an EC50 of 60.8 µM (IMR-90; cell growth or viability; 72 h).
`C=CC(=O)Nc1cc(-c2nn(C3CCN(CCNC(=O)[C@H](C)CCC45CC6CC(CC(C6)C4)C5)CC3)c3ncnc(N)c23)ccc1Oc1ccccc1` has an EC50 of 0.8 to 1.4 µM (HER3-dependent cell lines; cell death).
`CC1=C(C2=C(C)C(=O)c3c(cc(O)c(O)c3C(C)C)C2=O)C(=O)c2cc(O)c(O)c(C(C)C)c2C1=O` (racemic) has an EC50 of 13.4 ± 1.2 µM (BP3 human lymphoma; apoptosis, annexin V-PI staining; 24 h).
The EC50 of `Cc1ccc2oc(=O)c(-c3nc4cnccc4[nH]3)cc2c1` is reported as 100 µM (endometrial stem cells; cell proliferation; 72 h).
`C#CC[C@@H](/C=C/S(C)(=O)=O)NC(=O)[C@H](COC)NC(=O)[C@H](CCc1ccccc1)NC(=O)CN1CCOCC1` has an EC50 of > 250 µM (HFF, non-confluent; cell viability, CellTiter-Blue; 1 h).
For `NC(COc1cc(C(F)(F)F)cc(C(F)(F)F)c1)c1ccccc1` (centres unmarked), the EC50 was > 200 µM (normal hiPSC cardiomyocytes; APD75 prolongation, kinetic imaging cytometry).
With `O=C(NN1C(=O)c2ccccc2NC1c1ccc([N+](=O)[O-])o1)c1ccc([N+](=O)[O-])cc1` (centres unmarked) the EC50 was 32 µM (LDR; silenced GFP reporter derepression, microscopy; overnight).
For `C(=C/c1ccccc1)/c1ccccc1`, the EC50 was 31 µM (Jurkat; caspase-3 activity, flow cytometry; 24 h).
`COc1nc(Nc2nc(O)c3ccccc3n2)nc2ccc(C)cc12` has an EC50 of 8 µM (LDR; silenced GFP reporter derepression, microscopy; overnight).
`FC(F)(F)c1ccnc(-c2cc(C(F)(F)F)ccn2)c1.FC(F)(F)c1ccnc(-c2cc(C(F)(F)F)ccn2)c1.[Cl-].[Cl-].[Ru+2].c1csc(-c2nc3c4cccnc4c4ncccc4c3[nH]2)c1` gave an EC50 of 22 µM (SK-MEL-28; cell viability; 100 J/cm2 light, normoxia, with: visible light 400-700 nm).
For `Cc1ccc(/C=N/N=C(\S)Nc2cccc(S(=O)(=O)N(C)C)c2)o1`, the EC50 was 14 µM (LDR; silenced GFP reporter derepression, microscopy; overnight).
With `CC[C@@H](/C=C/S(C)(=O)=O)NC(=O)[C@H](COC)NC(=O)[C@H](CCc1ccccc1)NC(=O)CN1CCOCC1` the EC50 was 14 ± 3.58 µM (HFF, non-confluent; cell viability, CellTiter-Blue; 72 h).
The EC50 of `COc1ccc2c(C)nc(Nc3nc(O)cc(-c4ccccc4)n3)nc2c1` is reported as 6 µM (LDR; silenced GFP reporter derepression, microscopy; overnight).
With `CCCCCCCCC1(CCCCCCCC)c2cc(-c3cc4[n+]5c(c3)-c3cccc[n+]3[Ir-3]536([n+]5ccccc5-c5cc(-c7ccccc7)cc([n+]53)-c3cccc[n+]36)[n+]3ccccc3-4)ccc2-c2ccc(-c3cc4[n+]5c(c3)-c3cccc[n+]3[Ir-3]536([n+]5ccccc5-c5cc(-c7ccccc7)cc([n+]53)-c3cccc[n+]36)[n+]3ccccc3-4)cc21.F[P-](F)(F)(F)(F)F.F[P-](F)(F)(F)(F)F.F[P-](F)(F)(F)(F)F.F[P-](F)(F)(F)(F)F.F[P-](F)(F)(F)(F)F.F[P-](F)(F)(F)(F)F` the EC50 was 0.75 ± 0.01 µM (SK-MEL-28; cell viability, resazurin; 16 h before light, visible light 100 J/cm2).
For `CC(C)C[C@@H](/C=C/S(C)(=O)=O)NC(=O)[C@H](CC(C)C)NC(=O)[C@H](CCc1ccccc1)NC(=O)CN1CCOCC1`, the EC50 was 1.88 ± 0.46 µM (HFF, non-confluent; cell viability, CellTiter-Blue; 72 h).
`Cc1ncsc1-c1ccc(CNC(=O)[C@@H]2C[C@@H](O)CN2C(=O)[C@@H](NC(=O)COCCOCCOCCNC(=O)C[C@@H]2N=C(c3ccc(Cl)cc3)c3c(sc(C)c3C)-n3c(C)nnc32)C(C)(C)C)cc1` gave an EC50 of 0.15 µM (22Rv1; caspase-3/7 activation; 24 h).
`CCCCCCCCC1(CCCCCCCC)c2cc(-c3cc4[n+]5c(c3)-c3cccc[n+]3[Ir-3]536([c]5ccccc5-c5cc(-c7ccccc7)cc([n+]53)-c3cccc[c]36)[n+]3ccccc3-4)ccc2-c2ccc(-c3cc4[n+]5c(c3)-c3cccc[n+]3[Ir-3]536([c]5ccccc5-c5cc(-c7ccccc7)cc([n+]53)-c3cccc[c]36)[n+]3ccccc3-4)cc21.F[P-](F)(F)(F)(F)F.F[P-](F)(F)(F)(F)F` has an EC50 of 85.1 ± 1 µM (SK-MEL-28; cell viability, resazurin; 16 h before light, red light 100 J/cm2).
`CCc1nnc(NC(=O)c2cccc(C(=O)Nc3nnc(CC)s3)n2)s1` gave an EC50 of 8 µM (LDR; silenced GFP reporter derepression, microscopy; overnight).
For `COC[C@H](NC(=O)[C@H](CCc1ccccc1)NC(=O)CN1CCOCC1)C(=O)N[C@H](/C=C/S(C)(=O)=O)CC(C)C`, the EC50 was 13.4 ± 4.41 µM (HFF, non-confluent; cell viability, CellTiter-Blue; 72 h).
With `O=C(CSc1cccc[n+]1[O-])c1ccccc1Br` the EC50 was 28 µM (LDR; silenced GFP reporter derepression, microscopy; overnight).
For `CCCCCCCCC1(CCCCCCCC)c2cc(C#Cc3cc4[n+]5c(c3)-c3cccc[n+]3[Ir-3]536([n+]5ccccc5-4)[n+]4ccccc4-c4cc(-c5ccccc5)cc([n+]43)-c3cccc[n+]36)ccc2-c2ccc(C#Cc3cc4[n+]5c(c3)-c3cccc[n+]3[Ir-3]536([n+]5ccccc5-4)[n+]4ccccc4-c4cc(-c5ccccc5)cc([n+]43)-c3cccc[n+]36)cc21.F[P-](F)(F)(F)(F)F.F[P-](F)(F)(F)(F)F.F[P-](F)(F)(F)(F)F.F[P-](F)(F)(F)(F)F.F[P-](F)(F)(F)(F)F.F[P-](F)(F)(F)(F)F`, the EC50 was 16.2 ± 0.5 µM (SK-MEL-28; cell viability, resazurin; 16 h before light, red light 100 J/cm2).
`C(=N\Nc1nc(-c2ccccn2)nc2ccccc12)/c1ccccc1` has an EC50 of 20 µM (LDR; silenced GFP reporter derepression, microscopy; overnight).
`Cc1cc2cc(O)c(O)cc2c(O)c1-c1c(C)cc2cc(O)c(O)cc2c1O` gave an EC50 of 13.4 µM (H1299; cell viability, ATP luminescence; 72 h).
`COC[C@H](NC(=O)[C@H](CCc1ccccc1)NC(=O)CN1CCOCC1)C(=O)N[C@H](/C=C/S(C)(=O)=O)Cc1cccs1` gave an EC50 of 9.8 ± 2.96 µM (HFF, non-confluent; cell viability, CellTiter-Blue; 72 h).
For `COc1ccc(NC(=O)CSc2nc3c(oc4ccccc43)c(=O)n2Cc2ccco2)cc1Cl`, the EC50 was 13 µM (LDR; silenced GFP reporter derepression, microscopy; overnight).

For quick reference, copied from above:
The EC50 of `Cc1ccc2oc(=O)c(-c3nc4cnccc4[nH]3)cc2c1` is reported as 100 µM (endometrial stem cells; cell proliferation; 72 h).
`C#CC[C@@H](/C=C/S(C)(=O)=O)NC(=O)[C@H](COC)NC(=O)[C@H](CCc1ccccc1)NC(=O)CN1CCOCC1` has an EC50 of > 250 µM (HFF, non-confluent; cell viability, CellTiter-Blue; 1 h).
